Experimental data pooled from the literature.
Values joined by “and” are separate records of one study, mostly repeats; a detail may differ. Numbers after ± are the reported error.
Sequence of UniProt P06276 (whole entry, looked up): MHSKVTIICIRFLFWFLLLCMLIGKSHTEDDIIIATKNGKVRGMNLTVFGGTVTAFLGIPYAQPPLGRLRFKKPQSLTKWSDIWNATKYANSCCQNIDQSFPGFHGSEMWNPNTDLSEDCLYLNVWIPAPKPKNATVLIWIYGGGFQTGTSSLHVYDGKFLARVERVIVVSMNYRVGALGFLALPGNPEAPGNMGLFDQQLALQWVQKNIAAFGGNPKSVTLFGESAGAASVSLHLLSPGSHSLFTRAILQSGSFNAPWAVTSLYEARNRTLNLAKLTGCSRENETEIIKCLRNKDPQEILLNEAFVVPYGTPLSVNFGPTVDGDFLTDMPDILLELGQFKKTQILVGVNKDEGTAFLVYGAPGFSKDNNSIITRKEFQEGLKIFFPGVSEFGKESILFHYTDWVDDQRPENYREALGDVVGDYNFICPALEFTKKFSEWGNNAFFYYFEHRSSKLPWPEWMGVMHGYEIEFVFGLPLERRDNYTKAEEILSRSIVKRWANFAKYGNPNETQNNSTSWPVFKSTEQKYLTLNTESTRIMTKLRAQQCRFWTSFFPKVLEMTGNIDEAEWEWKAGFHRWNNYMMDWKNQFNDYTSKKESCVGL
Sequence of UniProt P81908 (whole entry, looked up): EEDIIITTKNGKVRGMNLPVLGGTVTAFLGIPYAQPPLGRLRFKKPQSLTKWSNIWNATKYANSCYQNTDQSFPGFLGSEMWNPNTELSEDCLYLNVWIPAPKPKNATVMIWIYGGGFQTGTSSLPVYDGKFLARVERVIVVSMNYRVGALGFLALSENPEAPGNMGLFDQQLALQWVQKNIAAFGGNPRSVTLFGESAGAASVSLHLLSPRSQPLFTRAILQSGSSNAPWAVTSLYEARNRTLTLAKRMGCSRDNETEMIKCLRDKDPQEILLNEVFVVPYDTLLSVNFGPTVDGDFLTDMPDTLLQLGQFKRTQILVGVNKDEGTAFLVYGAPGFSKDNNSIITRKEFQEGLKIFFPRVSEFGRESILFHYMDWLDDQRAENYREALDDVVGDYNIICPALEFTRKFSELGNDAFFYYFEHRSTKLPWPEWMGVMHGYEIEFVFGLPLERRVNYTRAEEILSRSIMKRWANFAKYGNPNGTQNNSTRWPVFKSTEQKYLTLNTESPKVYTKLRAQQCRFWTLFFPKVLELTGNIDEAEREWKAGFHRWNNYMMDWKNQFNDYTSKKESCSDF
Sequence of UniProt O88704 (whole entry, looked up): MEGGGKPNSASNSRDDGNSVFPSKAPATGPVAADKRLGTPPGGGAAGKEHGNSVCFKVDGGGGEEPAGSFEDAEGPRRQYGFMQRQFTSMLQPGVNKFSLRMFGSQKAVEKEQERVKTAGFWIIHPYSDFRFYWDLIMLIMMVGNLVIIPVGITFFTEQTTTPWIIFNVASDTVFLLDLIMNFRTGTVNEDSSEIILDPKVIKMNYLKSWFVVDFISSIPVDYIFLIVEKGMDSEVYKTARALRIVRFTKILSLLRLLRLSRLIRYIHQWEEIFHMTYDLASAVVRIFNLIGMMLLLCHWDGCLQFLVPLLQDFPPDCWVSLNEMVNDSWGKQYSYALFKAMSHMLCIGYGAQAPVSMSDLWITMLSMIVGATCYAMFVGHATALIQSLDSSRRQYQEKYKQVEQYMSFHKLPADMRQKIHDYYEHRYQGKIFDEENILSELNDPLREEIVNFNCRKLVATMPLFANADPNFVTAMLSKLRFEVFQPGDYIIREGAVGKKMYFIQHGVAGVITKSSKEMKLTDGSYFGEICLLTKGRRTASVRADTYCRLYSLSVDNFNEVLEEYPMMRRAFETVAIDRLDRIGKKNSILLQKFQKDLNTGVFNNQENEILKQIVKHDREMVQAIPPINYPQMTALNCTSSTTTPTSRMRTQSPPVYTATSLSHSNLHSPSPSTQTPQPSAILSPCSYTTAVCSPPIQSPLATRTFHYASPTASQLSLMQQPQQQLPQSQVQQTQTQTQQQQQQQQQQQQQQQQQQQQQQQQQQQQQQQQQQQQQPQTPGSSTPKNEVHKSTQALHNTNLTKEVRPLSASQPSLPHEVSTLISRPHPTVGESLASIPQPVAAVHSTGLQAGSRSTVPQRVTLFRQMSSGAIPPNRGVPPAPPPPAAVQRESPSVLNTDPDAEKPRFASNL
Sequence of UniProt Q9H5I1 (whole entry, looked up): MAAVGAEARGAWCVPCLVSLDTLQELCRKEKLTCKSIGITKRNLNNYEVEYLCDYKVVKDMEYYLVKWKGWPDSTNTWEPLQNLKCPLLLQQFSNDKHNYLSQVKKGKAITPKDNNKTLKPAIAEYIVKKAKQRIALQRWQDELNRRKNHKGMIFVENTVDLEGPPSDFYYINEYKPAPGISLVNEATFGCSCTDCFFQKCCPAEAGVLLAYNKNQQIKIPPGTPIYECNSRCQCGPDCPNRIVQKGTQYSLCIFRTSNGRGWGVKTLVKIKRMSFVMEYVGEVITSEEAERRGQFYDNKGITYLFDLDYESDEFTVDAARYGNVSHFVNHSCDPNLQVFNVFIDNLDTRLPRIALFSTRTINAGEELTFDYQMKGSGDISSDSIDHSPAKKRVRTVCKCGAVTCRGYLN
Sequence of UniProt Q99ZW2 (whole entry, looked up): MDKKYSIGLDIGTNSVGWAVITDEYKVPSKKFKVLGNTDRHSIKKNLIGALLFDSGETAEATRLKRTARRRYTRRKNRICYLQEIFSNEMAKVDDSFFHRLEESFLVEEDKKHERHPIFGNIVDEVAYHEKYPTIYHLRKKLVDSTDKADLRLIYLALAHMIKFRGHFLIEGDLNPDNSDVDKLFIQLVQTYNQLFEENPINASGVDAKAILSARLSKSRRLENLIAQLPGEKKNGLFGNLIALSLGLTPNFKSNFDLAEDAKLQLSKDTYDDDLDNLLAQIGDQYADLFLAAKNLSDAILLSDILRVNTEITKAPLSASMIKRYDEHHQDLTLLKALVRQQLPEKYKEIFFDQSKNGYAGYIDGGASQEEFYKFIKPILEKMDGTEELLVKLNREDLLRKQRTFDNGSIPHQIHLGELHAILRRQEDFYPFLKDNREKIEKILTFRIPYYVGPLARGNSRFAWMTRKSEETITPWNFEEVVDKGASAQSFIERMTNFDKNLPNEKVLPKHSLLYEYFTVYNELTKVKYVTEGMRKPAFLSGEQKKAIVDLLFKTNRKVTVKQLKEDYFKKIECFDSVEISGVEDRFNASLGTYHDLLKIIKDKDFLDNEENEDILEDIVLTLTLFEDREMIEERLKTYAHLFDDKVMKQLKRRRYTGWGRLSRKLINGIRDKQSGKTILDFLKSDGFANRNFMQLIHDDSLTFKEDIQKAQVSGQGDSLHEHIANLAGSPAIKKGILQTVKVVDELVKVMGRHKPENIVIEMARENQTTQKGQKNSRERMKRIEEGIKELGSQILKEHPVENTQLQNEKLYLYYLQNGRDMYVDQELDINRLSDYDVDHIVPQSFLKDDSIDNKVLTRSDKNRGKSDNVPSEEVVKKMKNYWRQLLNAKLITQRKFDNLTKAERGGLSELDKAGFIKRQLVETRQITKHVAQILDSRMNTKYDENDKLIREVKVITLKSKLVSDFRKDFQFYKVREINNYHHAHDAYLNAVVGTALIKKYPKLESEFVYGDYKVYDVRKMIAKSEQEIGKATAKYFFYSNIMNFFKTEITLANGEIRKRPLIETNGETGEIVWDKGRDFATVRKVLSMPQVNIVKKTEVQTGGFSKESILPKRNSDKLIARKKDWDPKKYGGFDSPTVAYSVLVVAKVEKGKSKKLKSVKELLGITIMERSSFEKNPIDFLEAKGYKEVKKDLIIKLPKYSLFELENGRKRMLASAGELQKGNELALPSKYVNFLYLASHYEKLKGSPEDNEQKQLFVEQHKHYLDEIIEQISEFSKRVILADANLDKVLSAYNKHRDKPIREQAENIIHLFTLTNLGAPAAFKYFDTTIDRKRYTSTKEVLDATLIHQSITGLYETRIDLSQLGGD
Sequence of UniProt P39135 (whole entry, looked up): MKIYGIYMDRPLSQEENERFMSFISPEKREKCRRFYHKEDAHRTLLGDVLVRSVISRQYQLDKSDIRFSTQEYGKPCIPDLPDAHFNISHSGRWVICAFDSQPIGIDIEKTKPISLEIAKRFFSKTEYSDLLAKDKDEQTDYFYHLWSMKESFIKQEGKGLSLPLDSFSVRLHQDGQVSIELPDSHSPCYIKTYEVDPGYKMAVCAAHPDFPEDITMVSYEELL
Sequence of UniProt Q9Y6L6 (whole entry, looked up): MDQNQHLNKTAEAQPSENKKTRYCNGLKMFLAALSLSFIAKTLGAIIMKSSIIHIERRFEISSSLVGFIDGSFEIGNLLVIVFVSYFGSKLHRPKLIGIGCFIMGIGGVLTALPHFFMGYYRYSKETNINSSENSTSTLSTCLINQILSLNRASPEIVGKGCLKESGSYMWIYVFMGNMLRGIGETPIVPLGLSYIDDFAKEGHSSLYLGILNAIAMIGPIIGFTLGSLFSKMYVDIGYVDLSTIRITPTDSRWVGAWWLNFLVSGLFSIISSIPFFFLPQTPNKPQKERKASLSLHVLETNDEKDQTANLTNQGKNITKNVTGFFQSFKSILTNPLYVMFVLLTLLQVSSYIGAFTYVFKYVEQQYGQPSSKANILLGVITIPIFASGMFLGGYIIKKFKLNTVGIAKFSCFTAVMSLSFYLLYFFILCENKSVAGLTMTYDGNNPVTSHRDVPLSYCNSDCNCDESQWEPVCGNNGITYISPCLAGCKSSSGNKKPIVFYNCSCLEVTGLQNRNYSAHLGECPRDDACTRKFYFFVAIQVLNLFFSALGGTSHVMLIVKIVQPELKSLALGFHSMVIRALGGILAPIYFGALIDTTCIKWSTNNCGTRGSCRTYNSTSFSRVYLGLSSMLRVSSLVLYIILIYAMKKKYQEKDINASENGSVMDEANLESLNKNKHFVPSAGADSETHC

| SMILES | target | assay | test system | conditions | IC50 |
| --- | --- | --- | --- | --- | --- |
| C[C@@H]1CC[C@]2(C(=O)O[C@@H]3O[C@H](CO)[C@@H](O)[C@H](O)[C@H]3O)CC[C@]3(C)C(=CC[C@@H]4[C@@]5(C)C[C@@H](O)[C@H](O)[C@@](C)(CO)[C@@H]5CC[C@]43C)[C@@H]2[C@]1(C)O | acetylcholinesterase | inhibitor, Ellman |  | 20 min pre-incubation, 30 min, pH 7.4, with: acetylthiocholine | 45.5 µg/mL |
| Oc1c(Cl)cc(-c2ccc(Cl)cc2Cl)cc1Cl | Sulfotransferase 2A6 (Sult2a6, Rattus norvegicus, UniProt P22789) | enzyme activity, inhibitor |  | 6 min, 37 °C, with: DHEA 10 µM | ~32000 nM |
| O=C1C=C(N(Cc2ccc(Cl)nc2)CC(F)F)CO1 | nicotinic acetylcholine receptor Musca domestica | binding, displacement, radioligand displacement | housefly head membranes | with: [3H]imidacloprid | 2.38 ± 1.93 nM |
| CCN1C(=Cc2ccc3ccccc3[n+]2CC)C=Cc2ccccc21 | SLC29A4 (Homo sapiens, UniProt Q7RTT9) | [3H]MPP+ uptake, inhibitor | HEK293 stably expressing SLC29A4 | 10 min, room temperature, with: 10 nM [3H]MPP+ | ~1000 nM |
| N.N.[Cl][Pt][Cl] | Carbamate kinase (Giardia intestinalis, UniProt A8BB85) | enzyme activity, ATP luminescence |  |  | 5170 nM |
| CCCCCCCCCCCCC/C=C/[C@@H](O)[C@@H](N)COP(=O)(O)OCC[N+](C)(C)C | RYR1 (Oryctolagus cuniculus, UniProt P11716) | channel open probability, inhibitor, planar lipid bilayer |  | with: calmodulin 100 nM, free Ca2+ 22 µM | 700 ± 200 nM |
| CSC[C@H]1O[C@@H](n2cnc3c(N)ncnc32)[C@H](O)[C@@H]1O | Protein arginine methyltransferase 1 (Plasmodium falciparum, UniProt Q8ILK1) | methyltransferase activity, inhibitor |  | 30 min, 30 °C, with: histone H4 substrate | > 360000 nM |
| CC1(C)[C@@H](OC(=O)CCC(=O)O)CC[C@]2(C)[C@H]3C(=O)C=C4[C@@H]5C[C@@](C)(C(=O)O)CC[C@]5(C)CC[C@@]4(C)[C@]3(C)CC[C@@H]12 | CRISPR-associated endonuclease Cas9/Csn1 (cas9, Streptococcus pyogenes serotype M1, UniProt Q99ZW2) | DNA cleavage, inhibitor, in vitro cleavage | Streptococcus pyogenes | with: FAM-labelled PCSK9 DNA substrate | ~5000 nM |
| Nc1cccc(-c2cc3c(Oc4cccc(O)c4)ncnc3[nH]2)c1 | GSK3 (Trypanosoma brucei, UniProt Q388M1) | enzyme activity, inhibitor |  | with: GSM peptide and ATP | 600 ± 100 nM |
| CCCCCCCC(=O)SCC/C=C/[C@@H]1CC(=O)NCc2nc(cs2)C2=N[C@@](C)(CS2)C(=O)N[C@@H](C(C)C)C(=O)N1 | Histone deacetylase 3, with NCoR2 peptide (HDAC3, Homo sapiens, UniProt O15379) | inhibitor |  |  | > 3000 nM |
| CCCCOC(=O)c1cccc(NC(=O)COc2ccc(Cl)cc2Cl)c1 | MAPT (Homo sapiens, UniProt P10636, P618L) | amyloid aggregation, inhibitor, fluorescence |  |  | 6930 nM |
| O=C(/C=C/c1ccccc1)c1ccc(OCCNC2CCN(Cc3ccc(Cl)c(Cl)c3)CC2)cc1 | Cholinesterase (BCHE, Homo sapiens, UniProt P06276) | enzyme activity, inhibitor |  | pH 8 | 26100 nM |
| CC1=C(C(=O)NC(=O)c2cnccn2)C(c2ccc(F)cc2)NC(=O)N1 (stereo not shown) | Cholinesterase (BCHE, Equus caballus, UniProt P81908) |  |  |  | 4840 ± 10 nM |
| CC(C)c1ccc(NC(=O)Oc2ccc3c(c2)[C@]2(C)CCN[C@@H]2N3)cc1 | Cholinesterase (BCHE, Homo sapiens, UniProt P06276) | enzyme activity, inhibitor, immobilized enzyme reactor, HPLC-UV | immobilized recombinant human enzyme | inhibition plateau, L-tartrate salt | 2.66 ± 0.09 nM |
| NC(=O)c1cccc(-c2cccc(OC(=O)NC3CCCCC3)c2)c1 | Cholinesterase (BCHE, Equus caballus, UniProt P81908) | enzyme activity, inhibitor, HPLC |  |  | > 10000 nM |
| CN1C(=O)[C@]23SS[C@@]1(C)C(=O)N2[C@H]1Nc2ccccc2[C@@]1([C@@]12c4ccccc4N[C@@H]1N1C(=O)[C@@]4(C)SS[C@]1(C(=O)N4C)[C@H]2O)[C@@H]3O | SUV39H2 (Homo sapiens, UniProt Q9H5I1) | enzyme activity, inhibitor, radiometric |  |  | 481 nM |
| CCC(=O)CCCCC[C@@H]1NC(=O)[C@H]2CCCCN2C(=O)[C@H]([C@@H](C)CC)NC(=O)[C@H](Cc2cn(OC)c3ccccc23)NC1=O | HDAC (Lucilia cuprina egg nuclear extract) | enzyme activity, inhibitor, fluorometric |  |  | 720 nM |

| SMILES | target | assay | test system | conditions | IC50 |
| --- | --- | --- | --- | --- | --- |
| CCC(C)c1cccc(C(C)CC)c1O (stereo not shown) | Hcn1 (Mus musculus, UniProt O88704) | channel gating (V1/2 shift), inhibitor, two-electrode voltage clamp | Xenopus oocytes |  | ~355000 nM and 355000 nM |
| COc1ccc(NC(=O)N2CCCCN3[C@H](CN)[C@H](c4ccc(C#Cc5ccccc5)cc4)[C@@H]3C2)cc1 | Phenylalanine--tRNA ligase alpha subunit (Plasmodium falciparum, UniProt Q8I246) | aminoacylation activity, inhibitor |  |  | 45 nM and 46 nM |
| C[C@@H]1C[C@H]2[C@@H]3CCC4=CC(=O)C=C[C@]4(C)[C@@]3(Cl)[C@@H](O)C[C@]2(C)[C@@]1(OC(=O)c1ccco1)C(=O)CCl | ABCC1 (Homo sapiens, UniProt P33527) | efflux, inhibitor | SupT1-Vin overexpressing ABCC1 | with: SYTO 13 100 nM | 1000 ± 800 nM |
| CCC(CC)COC(=O)[C@H](C)N[P@](=O)(OC[C@H]1O[C@@](C#N)(c2ccc3c(N)ncnn23)[C@H](O)[C@@H]1O)Oc1ccccc1 | SLCO1B1 (Homo sapiens, UniProt Q9Y6L6) | transport, inhibitor |  | 10 (unit not given), pre-incubation, with: estrone-3-sulfate | 36100 ± 24400 nM |
| C[n+]1cc2c3c(ccc2c2ccc4cc5c(cc4c21)OCO5)OCO3 | sfp (Bacillus subtilis, UniProt P39135) | inhibitor |  |  | 10000 ± 1000 nM |
| O=C([O-])[C@H]([O-])[C@@H]([O-])C(=O)[O-].O=C([O-])[C@H]([O-])[C@@H]([O-])C(=O)[O-].[K+].[K+].[Sb+3].[Sb+3] | Thioredoxin glutathione reductase (Schistosoma mansoni, UniProt Q962Y6) | DTNB reduction, inhibitor |  | 10 min preincubation with NADPH, with: 3 mM DTNB | 9 nM |
| CCC(=O)Nc1cc(Nc2cc(NC3CC3)n3ncc(C#N)c3n2)ccc1N(C)CCN1CCCCC1 | CSNK2A2 (Homo sapiens, UniProt P19784) | target engagement in cells, BRET |  |  | 251 nM |
| O=C1Nc2ccc3ncsc3c2/C1=C/Nc1ccc(S(=O)(=O)Nc2ccccn2)cc1 | Putative glycogen synthase kinase (Leishmania major, UniProt Q4QE15) | enzyme activity, inhibitor |  | 90 min, 30 °C, with: ATP 2 µM | 840 nM |
| Cn1ncnc2c(=O)n(C)c(=O)nc1-2 | P4HB (Homo sapiens, UniProt P07237) | enzyme activity, inhibitor, absorbance |  |  | 105 nM |
| NC(Cc1cc(O)c(O)cc1O)C(=O)O (racemic) | Trypanothione synthetase (Trypanosoma brucei brucei, UniProt Q586P2) | enzyme activity, BIOMOL Green phosphate release |  | 1 h preincubation | 13000 ± 3500 nM |
| Nc1ncnc2c1ncn2[C@@H]1O[C@H](COP(=O)(O)OP(=O)(O)C(Cl)(Cl)P(=O)(O)O)[C@@H](O)[C@H]1O | FRK (Homo sapiens, UniProt P42685) | enzyme activity, inhibitor, radiometric |  |  | 110 nM |
| CCc1ccc(C(=O)NCCCC[C@H](NC(=O)[C@H](Cc2ccc(C(F)(F)P(=O)(O)O)cc2)NC(=O)[C@H](Cc2ccccc2)NC(=O)CO[C@H]2C[C@@H](C)CC[C@@H]2C(C)C)C(N)=O)cc1 | PTPN2 (Homo sapiens, UniProt P17706) | enzyme activity, inhibitor |  | no preincubation, with: pNPP substrate | 9.2 ± 1.4 nM |
| CC[C@H](C)[C@H](NC(=O)[C@H](CC(N)=O)NC(=O)[C@H](Cc1c[nH]cn1)NC(=O)[C@@H](NC(=O)[C@H](CCC(N)=O)NC(=O)[C@H](CCCNC(=N)N)NC(=O)[C@H](CCSC)NC(=O)[C@H](C)N)[C@@H](C)O)C(=O)N[C@@H](Cc1ccccc1)C(=O)N[C@@H](Cc1ccccc1)C(=O)N[C@@H](CC(N)=O)C(=O)N[C@@H](Cc1ccccc1)C(=O)N[C@@H](Cc1ccccc1)C(=O)N[C@@H](CCCCN)C(=O)N[C@@H](CCCNC(=N)N)C(=O)N[C@@H](CCCNC(=N)N)C(=O)O | histidine kinase ComD (Streptococcus pneumoniae serotype 4, UniProt A0A0H2US84) | reporter gene, antagonist | Streptococcus pneumoniae, TIGR4 comX::lacZ | 30 min, 37 °C, with: CSP2 250 nM | > 10000 nM |
| O=Cc1ccc2cccc(O)c2n1 | Cholinesterase (BCHE, Homo sapiens, UniProt P06276) | enzyme activity, inhibitor, Ellman |  |  | 5260 nM |
| [N-]=[N+]=Nc1ccc(C(=O)CSC[C@H](NC(=O)CC[C@H](N)C(=O)O)C(=O)NCC(=O)O)cc1 | ERRα (human) | reporter gene, antagonist, luciferase reporter qHTS |  |  | 530 nM |
| Cc1cccc(Nc2nc(NC3CCCCC3N)ncc2C(N)=O)c1 (stereo not shown) | ROP18 (Toxoplasma gondii, UniProt Q2PAY2) | enzyme activity, inhibitor |  |  | 2980 nM |
| CN(Cc1cccc(-c2ccncc2)c1)C(=O)OC(C(F)(F)F)C(F)(F)F | Faah (Mus musculus, UniProt O08914) | competitive ABPP | mouse brain membrane proteome |  | > 50000 nM |

For quick reference, copied from above:
| SMILES | target | assay | test system | conditions | IC50 |
| --- | --- | --- | --- | --- | --- |
| C[n+]1cc2c3c(ccc2c2ccc4cc5c(cc4c21)OCO5)OCO3 | sfp (Bacillus subtilis, UniProt P39135) | inhibitor |  |  | 10000 ± 1000 nM |
| O=C([O-])[C@H]([O-])[C@@H]([O-])C(=O)[O-].O=C([O-])[C@H]([O-])[C@@H]([O-])C(=O)[O-].[K+].[K+].[Sb+3].[Sb+3] | Thioredoxin glutathione reductase (Schistosoma mansoni, UniProt Q962Y6) | DTNB reduction, inhibitor |  | 10 min preincubation with NADPH, with: 3 mM DTNB | 9 nM |
| CCC(=O)Nc1cc(Nc2cc(NC3CC3)n3ncc(C#N)c3n2)ccc1N(C)CCN1CCCCC1 | CSNK2A2 (Homo sapiens, UniProt P19784) | target engagement in cells, BRET |  |  | 251 nM |
| O=C1Nc2ccc3ncsc3c2/C1=C/Nc1ccc(S(=O)(=O)Nc2ccccn2)cc1 | Putative glycogen synthase kinase (Leishmania major, UniProt Q4QE15) | enzyme activity, inhibitor |  | 90 min, 30 °C, with: ATP 2 µM | 840 nM |
| Cn1ncnc2c(=O)n(C)c(=O)nc1-2 | P4HB (Homo sapiens, UniProt P07237) | enzyme activity, inhibitor, absorbance |  |  | 105 nM |
